Assay results pooled from the literature.
Protocols differ between the studies behind these lines. ± marks the error that the study gave.

`O=C(Nc1cc(F)ccn1)C12CC1/C(=N\O)c1ccccc1O2` (single isomer, unassigned; (+)) has an EC50 of greater than 5 µM (Metabotropic glutamate receptor 4 (GRM4, Homo sapiens, UniProt Q14833); calcium mobilisation, positive allosteric modulator; CHO hmGluR4/Gqi5; together with: glutamate EC20).
With `O=C(c1cc2c(s1)CCCCC2)N1CCC(n2c(=O)[nH]c3ccccc32)CC1` the EC50 was 3.92 ± 0.37 µM (Short transient receptor potential channel 6 (TRPC6, Homo sapiens, UniProt Q9Y210, Y705W); channel activation, agonist, whole-cell patch clamp).
With `N[C@@H](Cc1c[nH]c2ccc(OCc3ccc(-c4cccs4)cc3)cc12)C(=O)O` the EC50 was 20 µM (Large neutral amino acids transporter small subunit 1 (SLC7A5, Homo sapiens, UniProt Q01650); leucine uptake; HT-29; together with: [3H]-L-leucine).
With `Cc1cc[n+]2c3c1ccc1c(C)cc[n+](c13)[Ir-3]213([c]2ccccc2-c2ccc4ccc(Cl)cc4[n+]21)[c]1ccccc1-c1ccc2ccc(Cl)cc2[n+]13.F[P-](F)(F)(F)(F)F` the EC50 was greater than 1 µM (Cyclin-dependent kinase 9, with cyclin T1 (CDK9, Homo sapiens, UniProt P50750); enzyme activity, inhibitor).
For `Cc1cc(N/C=C(\C(=O)NC2CCC2)C(=O)c2ccc(Cl)cc2Cl)no1`, the EC50 was 0.14 ± 0.01 µM (Gamma-aminobutyric acid receptor subunit alpha-4/beta3/delta (Homo sapiens, UniProt O14764+P28472+P48169); GABA current potentiation, positive modulator, two-electrode voltage clamp; Xenopus laevis oocytes; 30 s preincubation, together with: GABA EC10).
`C#CC[C@H](NC(=O)[C@H](Cc1ccccc1)NC(=O)[C@H](C)NC(=O)[C@H](CC(N)=O)NC(=O)[C@H](Cc1c[nH]c2ccccc12)NC(=O)[C@H](CCCNC(=N)N)NC(=O)[C@@H](Cc1ccccc1)NC(=O)[C@H](Cc1c[nH]cn1)NC(=O)[C@H](CN=[N+]=[N-])NC(=O)[C@@H](N)Cc1ccc(O)cc1)C(=O)N[C@@H](Cc1ccc(O)cc1)C(N)=O` has an EC50 of 0.051 ± 0.0093 µM (Melanocortin receptor 3 (Mus musculus, UniProt P33033); agonist).
With `CCOC(=O)C(C)(C)C(C)O` (stereo not shown) the EC50 was 35.9 µM (Peroxisome proliferator-activated receptor alpha (PPARA, Homo sapiens, UniProt Q07869); coactivator recruitment, agonist, TR-FRET).
For `COc1ccc(OC[C@H]2c3cccn3CC(=O)N2Cc2cccc(F)c2)cc1`, the EC50 was 1.7 µM (Ionotropic glutamate receptor NMDA 1/2D (Rattus norvegicus, UniProt P35439+Q62645); ion current, agonist, two-electrode voltage clamp; oocytes).
For `O=C(NO)c1cnc(NC2(c3cccc(F)c3)CCCCC2)nc1`, the EC50 was less than 0.00631 µM (MBLAC2 (Homo sapiens, UniProt Q68D91); palmitoyl-CoA hydrolysis, inhibitor; together with: [3H]palmitoyl-CoA).
`Cc1cc2sc(N)nc2c2cc(C(F)(F)F)cnc12` has an EC50 of greater than 30 µM (KCNN4/CALM1 (Homo sapiens, UniProt O15554+P0DP23); ion current, activator, patch clamp).
`COc1ccc(C(=O)/C=C(\O)C(F)(F)C(F)(F)F)c(O)c1` has an EC50 of 0.07 µM (Formate-nitrite transporter (Plasmodium falciparum, UniProt O77389); cell viability, resazurin; yeast expressing Formate-nitrite transporter; 72 h, L-lactate medium).
For `O=C(O)/C=C/c1cccc(NC(=O)c2cc(-c3ccc(F)cc3)ccc2F)c1`, the EC50 was greater than 10 µM (Prostaglandin D2 receptor (PTGDR, Homo sapiens, UniProt Q13258); calcium signal, agonist, fluorescence).
`CC(C)c1cc2c(cc1O)[C@@]1(C(=O)O)CCCC(C)(C)[C@@H]1CC2` gave an EC50 of 13 µM (Potassium voltage-gated channel subfamily A member 2 (KCNA2, Homo sapiens, UniProt P16389); human cells).

Excerpt of the above:
`COc1ccc(C(=O)/C=C(\O)C(F)(F)C(F)(F)F)c(O)c1` has an EC50 of 0.07 µM (Formate-nitrite transporter (Plasmodium falciparum, UniProt O77389); cell viability, resazurin; yeast expressing Formate-nitrite transporter; 72 h, L-lactate medium).
